# Measured values gathered from unrelated publications.
# Lines come from different studies, so protocols differ. ± gives the spread as reported.
Structure (SMILES),tested on,assay,test system,conditions,how to read,endpoint,result
OCc1cn(Cc2ccc(-c3noc(-c4ccc(OCC[18F])c(C(F)(F)F)c4)n3)cc2)nn1,,,"rat, blood","intravenous, 1 h",,tracer uptake,0.36 %ID/g
O=C(O)C1CN(Cc2ccc(-c3noc(-c4ccc(OCC[18F])c(C(F)(F)F)c4)n3)cc2)C1,,,"rat, blood","intravenous, 30 min",,tracer uptake,0.24 %ID/g
COCC1CN(C2CCN(c3cc(OC)c(Nc4ncc(Br)c(Nc5ccc6c(c5P(C)(C)=O)OCCO6)n4)cc3C)CC2)C1,,,human,"oral, 10 to 240 mg once daily, safety set, all grades",,patients with urine protein positive,14.8%
C[C@]12C[C@H](c3ccc(-c4ccc(C(=O)O)cc4)cc3)C3=C4CCC(=O)C=C4CC[C@H]3[C@@H]1CC[C@@]2(O)C(F)(F)C(F)(F)F,,,"rat, plasma",,,fraction unbound,0.007
NCCCC(=O)OCC(=O)c1ccc(O)c(C(F)(F)F)c1,,pump-probe transient absorption,10% acetonitrile in water,,,triplet lifetime,0.39 ns
CC(C)CCN(c1nc(C#N)nc(NC2COC2)n1)C(C)c1ccc(F)cc1 (stereo not drawn),,,female CD-1 mice,"intraperitoneal, 10 mg/kg, 4 h",,brain concentration,12.5 ng/g
C[C@H]1NSc2nc(=O)c3[nH]ccc3n2Cc2ccc(Cl)cc21,,,"Sprague-Dawley rat, male, plasma","oral, 125 mg/kg/day",relative to: rat over human 15 mg,exposure ratio,36
COc1cc2c(cc1OC)CN(CCCCn1ccc3cc(OCC[18F])ccc31)C2,,,male ICR mice,"intravenous, 280 kBq, 2 min post-injection",,muscle uptake,5.6 ± 0.91 %ID/g
CC(C)[C@H](NC(=O)[C@@H]1CCCN1C(=O)[C@H](CCCNC(=N)N)NC(=O)[C@H](CS)NC(=O)[C@H](Cc1c[nH]c2ccccc12)NC(=O)[C@H](CCCNC(=N)N)NC(=O)[C@@H](Cc1ccccc1)NC(=O)[C@H](Cc1c[nH]cn1)NC(=O)[C@H](CCC(=O)O)NC(=O)[C@H](CS)NC(=O)[C@H](CS)NC(=O)CNC(=O)[C@@H]1CC(=O)N[C@@H](CCCNC(=N)N)C(=O)NCC(=O)N[C@@H](CC(=O)O)C(=O)N[C@H](Cc2ccc(O)cc2)C(=O)N1)C(N)=O [technetium-99m labelled],,,"C57 mice B16/F1 melanoma female, urine","iv, 0.037 MBq, 4 h",,excretion,78.8 ± 3.38%
CC[C@H](C)[C@H](NC(=O)[C@@H]1CCCN1C(=O)CNC(=O)[C@H](Cc1ccccc1)NC(=O)[C@H](CC(N)=O)NC(=O)[C@H](CC(N)=O)NC(=O)[C@H](CO)NC(=O)[C@H](CO)NC(=O)[C@H](Cc1c[nH]cn1)NC(=O)[C@@H](NC(=O)[C@H](CC(C)C)NC(=O)[C@H](Cc1ccccc1)NC(=O)[C@H](CC(N)=O)NC(=O)[C@H](C)NC(=O)[C@H](CC(C)C)NC(=O)[C@H](CCCNC(=N)N)NC(=O)[C@H](CCC(N)=O)NC(=O)[C@@H](NC(=O)[C@H](C)NC(=O)[C@@H]1CSSC[C@H](NC(=O)[C@@H](N)CCCCN)C(=O)N[C@@H](CC(N)=O)C(=O)N[C@@H]([C@@H](C)O)C(=O)N[C@@H](C)C(=O)N[C@@H]([C@@H](C)O)C(=O)N1)[C@@H](C)O)C(C)C)C(=O)N[C@@H](CC(C)C)C(=O)N[C@@H](CO)C(=O)N[C@@H](CO)C(=O)N[C@H](C(=O)N[C@@H](CC(N)=O)C(=O)N[C@H](C(=O)NCC(=O)N[C@@H](CO)C(=O)N[C@@H](CC(N)=O)C(=O)N[C@H](C(=O)N[C@@H](Cc1ccc(O)cc1)C(N)=O)[C@@H](C)O)C(C)C)[C@@H](C)O,,ion mobility mass spectrometry,nitrogen drift gas,"dimer charge +5, second conformer",,collision cross section,884 ± 14.6 Å²
CCCC[C@@H]1NC(=O)[C@@H](NC(=O)[C@H](CCC(=O)O)NC(=O)CNC(=O)CN2CCN(CC(=O)O)CCN(CC(=O)O)CCN(CC(=O)O)CC2)CCCCNC(=O)C[C@@H](C(N)=O)NC(=O)[C@H](C(C)C)NC(=O)[C@@H]2CCCN2C(=O)[C@H](CCCNC(=N)N)NC(=O)CNC(=O)[C@H](Cc2c[nH]c3ccccc23)NC(=O)[C@H](CCCNC(=N)N)NC(=O)[C@@H](Cc2ccccc2)NC(=O)[C@H](Cc2c[nH]cn2)NC(=O)[C@H](CCC(=O)O)NC1=O [gallium-67 labelled],,,C57 mice with B16/F1 melanoma,"intravenous, 0.037 MBq/mouse, 4 h",relative to: tumour over blood,tumour to blood ratio,47.8
C[C@H]1Nc2nc(=O)c3[nH]ccc3n2Cc2ccc(Cl)cc21,,,"rat, male, plasma",125 mg/kg,relative to: rat over human 10 mg,exposure ratio,not detected
CCC(=O)N[C@@H](C)C(=O)OCC(=O)N[C@@H](C)C(=O)O,,,water,"pH 5, 65 °C",,depolymerization half-life,49.8 h
COc1cc2c(CCNC(C)=O)c[nH]c2cc1OS(=O)(=O)O,Abcg2 (mouse),,"FVB/N wild-type male mice, small intestine","oral, 10 mg/kg melatonin, 1 h",,concentration,230 ± 110 ng/g
O=c1nc(NO)ccn1[C@@H]1O[C@H](CO)[C@@H](O)[C@H]1O,,refers to: CYP2C8,"rat, arthritis model, liver","oral, 80 mg/kg twice daily, 5 days",relative to: untreated arthritic rats,protein level,0.3 fold
CC(C)(O)c1ncc([S@](N)(=O)=NC(=O)Nc2c3c(cc4c2CCC4)CCC3)s1,,,"human, plasma","oral, 100 mg, single dose, fed, healthy volunteers",,Cmax,7680 ng/mL
C=C(C)c1ccc([C@H]2C[C@@]3(C)[C@@H](CC[C@@]3(O)C(F)(F)C(F)(F)F)[C@@H]3CCC4=CC(=O)CCC4=C32)cc1,,,rat liver microsomes,100 % absorption assumed,,maximal oral bioavailability,53%
"CNC(=O)N[C@]1(C)CCC[C@@]2(C)C3CC[C@@]4(C)C[C@]3(CCC21)CC4=O (single isomer, unassigned)",,,processed rat plasma,"40 ng/mL, 24 h, 4 °C, autosampler stability",relative to: nominal concentration,relative error,-0.8%
NS(=O)(=O)Nc1ncnc(OCCOc2ncc(Br)cn2)c1-c1ccc(Br)cc1,,metabolite formation,"female Beagle dog, liver microsomes",500 mg/kg daily for 4 weeks,,Vmax,1250 ± 107 pmol/min/mg
O=C([O-])CN1CCN(CC(=O)[O-])CCN(CC(=O)NCCc2ccc3c(c2)C2C=CCC2C(c2cc4c(cc2Br)OCO4)N3)CCN(CC(=O)[O-])CC1.[111In+3] (stereo not drawn),,,"mouse, Hec50 endometrial tumour, muscle",4 h post injection,,tissue uptake,0.08 ± 0.02 %ID/g
COc1ccc([C@@H]2CC(=O)c3c(O)cc(O[C@@H]4O[C@H](CO[C@@H]5O[C@@H](C)[C@H](O)[C@@H](O)[C@H]5O)[C@@H](O)[C@H](O)[C@H]4O)cc3O2)cc1O,,,rat plasma,"31.25 ng/mL, three freeze-thaw cycles",relative to: nominal concentration,relative error,-2.49%
CN(O)C(=O)CCC(=O)NCCCN(CCCCN(CCCNC(=O)CCC(=O)N(C)O)C(=O)CCC(=O)N(C)O)C(=O)CCC(=O)N(C)O.[89Zr],,,"mouse, bone",4 h,,tracer uptake,0.02 %ID/g
CN1CCC[C@]1(C)/C=C/S(=O)(=O)NC(=O)Nc1c2c(cc3c1CCC3)CCC2,,,"human, plasma","oral, 25 mg single dose",,CL/F,0.9 L/h
Cc1ccc(OCC(=O)N(Cc2cccs2)c2ccn[nH]2)cc1,,,"male beagle dog, plasma","intravenous, 1.0 mg/kg",,half-life,33.6 min
C[C@H](NC(=O)c1ccc2c(c1)C(=O)OC21c2ccc(O)cc2Oc2cc(O)ccc21)C(=O)N[C@@H](CCCCN)C(=O)N[C@@H](C)C(=O)N[C@@H](CCCCN)C(=O)N[C@@H](C)C(=O)N[C@@H](CCCCN)C(=O)N[C@@H](C)C(=O)N[C@@H](CCCCN)C(=O)N[C@@H](C)C(=O)N[C@@H](CCCCN)C(=O)N[C@@H](C)C(=O)N[C@@H](CCCCN)C(=O)N[C@@H](C)C(=O)N[C@@H](CCCCN)C(=O)N[C@@H](C)C(=O)N[C@@H](CC(N)=O)C(=O)N[C@@H](C)C(=O)N[C@@H](CC(N)=O)C(=O)N[C@@H](C)C(=O)N[C@@H](CC(N)=O)C(=O)O,,,bovine cartilage explants,"24 h, desorption in 1 x PBS",,released fraction of uptaken compound,80%
COC(=O)c1ccc(-c2cn(Cc3cc(Cl)ccc3O[11CH3])nn2)cc1,,,"C57BL/6 mouse, muscle","dose not given, 2 min",,radioactivity,0.51 %ID/cc
COc1cc(/C=C/C(=O)N2CCc3ccccc3C2)ccc1O[11CH3],,PET-CT,"mouse C57BL/6, male, whole brain",intravenous,,maximum brain uptake,11.2 %ID/cc
NCCC(=O)N1Cc2ccccc2-c2c(nnn2-c2cn(C3OC(CO)C(O)C3O)c(=O)[nH]c2=O)-c2ccccc21 (mixture of isomers),,frequency-domain fluorometry,methanol,,,average fluorescence lifetime,2.7 ns
COc1ccc2c(c1)c(CC(=O)Nc1nnc(CCCCc3ccc(NC(=O)Cc4cccc(OC(F)(F)F)c4)nn3)[se]1)cn2C,,,"ICR mouse, whole blood","0.048 mg/mL, 0.033 h, 37 °C",,fraction in blood cells,30%
CC12CC(c3ccc(S(C)(=O)=O)cc3)C3=C4CCC(=O)C=C4CCC3C1CCC2(O)C(F)(F)C(F)(F)F (stereo not drawn),,,"human, plasma","oral, 4 mg, single dose, fasted",,AUC,325 ng·h/mL
CCOc1ccc2c(c1)C(C)=CC(C)(C)N2c1cc(OCC)cc2c1NC(C)(C)C=C2C,,decreased white adipose tissue mass,male BALB/c mice,"oral, diet, 90 days",,effective dose,≥ 286 mg/kg bw/day
CCCC[C@H](NC(=O)CNC(=O)CNC(=O)CN1CCN(CC(=O)O)CCN(CC(=O)O)CCN(CC(=O)O)CC1)C(=O)N[C@H]1CC(=O)NCCCC[C@@H](C(N)=O)NC(=O)[C@H](Cc2c[nH]c3ccccc23)NC(=O)[C@H](CCCNC(=N)N)NC(=O)[C@@H](Cc2ccccc2)NC(=O)[C@H](Cc2c[nH]cn2)NC1=O [copper-64 labelled],,,"C57 mouse female B16/F1 melanoma, urine","intravenous, 0.037 MBq, 24 h",,urinary excretion,67.4 ± 1.55%
CN(C)c1ccc(/C=C/c2cc(/C=C3\Sc4ccccc4N3CCCN3CCCC3)c3ccccc3[n+]2C)cc1,,,"Sprague-Dawley rat, female, plasma","intravenous, 1.5 mg/kg, 2 h",,compound remaining in plasma,40%
COc1ccc(N2CCOCC2)c2sc(NC(=O)c3ccnc(CN4CCCC4)c3)nc12,,photometric titration,,,,pKa (acidic),7.2
[11CH3]c1ccc2nc(C3CCC3)n(-c3ccc4[nH]ncc4c3)c2n1,,extrapolated from mouse,"human female, stomach wall",,,absorbed dose,6.4 µSv/MBq
CCCCC/C=C/C=C/C(=O)NCC(C)C,,,rat plasma,"250 ng/mL, 30 d, -80 °C, long-term storage medium QC",relative to: nominal concentration,relative error,0.67%
COc1ccc2cc(-c3ccc(-c4ccc(C)cn4)nc3)oc2c1,,,acetonitrile,"zinc(II) complex, added: quinine bisulfate reference",,fluorescence quantum yield,0.34
CC(C)(F)CC(NC(c1ccc(-c2ccc(S(C)(=O)=O)cc2)cc1)C(F)(F)F)C(=O)NCC#CBr (stereo not drawn),,LC-MS UV trace,aqueous buffer,"concentration not given, 23 h, pH 8.0, 37 °C, added: cysteine 10 mM",,cysteine adduct formation,66%
O=C(CCc1ccc(CNC(C(=O)OC2CCCC2)C2CCCCC2)cn1)NO (stereo not drawn),,,"human, plasma","oral, 50 mg, single dose, patients",,Cmax,256 ng/mL
COc1ccc(CNC[C@@](O)(COCc2ccc(OC)cc2)[C@@H]2CC[C@@H](C)C[C@H]2OCc2ccc(OC)cc2)cc1,,PAMPA-GI,phosphatidylcholine-cholesterol membrane,"500 µM, 4 h, pH 6.5, 37 °C, 5% DMSO",,permeability,37.4 ± 3.5 ×10⁻⁶ cm/s
Cc1c(C(=O)Nc2ccn(C)n2)ncn1Cc1cccc(C(F)(F)F)c1,,,"C57BL/6 mice, non-transgenic, liver","oral, drinking water, 15 mg/kg daily, 10 days",,concentration at time point,344 ± 31.3 ng/g
O=C(CCCCC[N+]#[C][99Tc-5]([C]#[N+]CCCCCC(=O)N[C@H]1C(O)O[C@H](CO)[C@@H](O)[C@@H]1O)([C]#[N+]CCCCCC(=O)N[C@H]1C(O)O[C@H](CO)[C@@H](O)[C@@H]1O)([C]#[N+]CCCCCC(=O)N[C@H]1C(O)O[C@H](CO)[C@@H](O)[C@@H]1O)([C]#[N+]CCCCCC(=O)N[C@H]1C(O)O[C@H](CO)[C@@H](O)[C@@H]1O)[C]#[N+]CCCCCC(=O)N[C@H]1C(O)O[C@H](CO)[C@@H](O)[C@@H]1O)N[C@H]1C(O)O[C@H](CO)[C@@H](O)[C@@H]1O (stereo partly drawn),,,"CD-1 mouse, healthy, blood",,,distribution half-life,5.81 min

# Repeated from above:
Structure (SMILES),tested on,assay,test system,conditions,how to read,endpoint,result
CC(C)(O)c1ncc([S@](N)(=O)=NC(=O)Nc2c3c(cc4c2CCC4)CCC3)s1,,,"human, plasma","oral, 100 mg, single dose, fed, healthy volunteers",,Cmax,7680 ng/mL
NCCCC(=O)OCC(=O)c1ccc(O)c(C(F)(F)F)c1,,pump-probe transient absorption,10% acetonitrile in water,,,triplet lifetime,0.39 ns
